Results of several laboratories.
Lines come from different studies, so protocols differ.

FC(F)(F)c1ccc(CNc2ccc(Cc3c[nH]c4ncc(Cl)cc34)cn2)cn1
adverse event incidence (refers to: Rash; patients with advanced solid tumours; oral, dose not given, all grades, possibly related to drug): 20%

CC[C@H](C)CCCCC(=O)N[C@@H](CCN)C(=O)N[C@H](C(=O)N[C@@H](CCN)C(=O)N[C@H]1CCNC(=O)[C@H]([C@@H](C)O)NC(=O)[C@H](CCN)NC(=O)[C@H](CCN)NC(=O)[C@H](CC(C)C)NC(=O)[C@@H](Cc2ccccc2)NC(=O)[C@H](CCN)NC1=O)[C@@H](C)O
adverse event incidence (refers to: oral hypoaesthesia; mild renal insufficiency patients; IV, 0.75 mg/kg): 85.7%

O=C1CCc2ccc(OCCCCN3CCN(c4cccc(Cl)c4Cl)CC3)cc2N1
adverse event incidence (refers to: Hypertension; genotyped patients, CYP2D6 normal metabolizers; dose not given, long-acting oral or depot): 0.8%

Cc1c(Cl)c(C)[n+]([O-])c(Cl)c1-c1noc(-c2cc(O)c(O)c([N+](=O)[O-])c2)n1
adverse event incidence (refers to: Severe severity; healthy Chinese subjects; oral, 25 mg): 0%

CC[C@H](C)[C@H](NC(=O)[C@H](Cc1ccccc1)NC(=O)[C@H](CCC(=O)O)NC(=O)[C@H](CCCCNC(=O)COCCOCCNC(=O)COCCOCCNC(=O)CC[C@H](NC(=O)CCCCCCCCCCCCCCCCC(=O)O)C(=O)O)NC(=O)[C@H](C)NC(=O)[C@H](C)NC(=O)[C@H](CCC(N)=O)NC(=O)CNC(=O)[C@H](CCC(=O)O)NC(=O)[C@H](CC(C)C)NC(=O)[C@H](Cc1ccc(O)cc1)NC(=O)[C@H](CO)NC(=O)[C@H](CO)NC(=O)[C@@H](NC(=O)[C@H](CC(=O)O)NC(=O)[C@H](CO)NC(=O)[C@@H](NC(=O)[C@H](Cc1ccccc1)NC(=O)[C@@H](NC(=O)CNC(=O)[C@H](CCC(=O)O)NC(=O)C(C)(C)NC(=O)[C@@H](N)Cc1cnc[nH]1)[C@@H](C)O)[C@@H](C)O)C(C)C)C(=O)N[C@@H](C)C(=O)N[C@@H](Cc1c[nH]c2ccccc12)C(=O)N[C@@H](CC(C)C)C(=O)N[C@H](C(=O)N[C@@H](CCCNC(=N)N)C(=O)NCC(=O)N[C@@H](CCCNC(=N)N)C(=O)NCC(=O)O)C(C)C
adverse event incidence (refers to: Headache; type 2 diabetes patients; dose not given; reference: subjects): 40%

CC(=O)O[C@H]1C(=O)[C@@]2(C)[C@H]([C@H](OC(=O)c3ccccc3)[C@]3(O)C[C@H](OC(=O)[C@H](O)[C@@H](NC(=O)c4ccccc4)c4ccccc4)C(C)=C1C3(C)C)[C@]1(OC(C)=O)CO[C@@H]1C[C@@H]2O
adverse event incidence (refers to: alanine aminotransferase increased; patients with advanced solid tumours; intravenous, dose not given, grade 3 and 4, possibly related to drug): 2%

Cc1ccc(Sc2ccccc2N2CCNCC2)c(C)c1
adverse event incidence (TEAE vomiting; healthy adult men; oral, 10 mg single dose, 8 nights, overall): 5%

Cc1c(C(=O)O)ccc2c3n(nc12)[C@@H]1[C@H](C3)N(CC2CC2)[C@@]2(C(=O)Nc3cc(Cl)ccc32)[C@H]1c1cccc(Cl)c1F
adverse event incidence (phase Ia trial, refers to: Dizziness; cancer patients; oral, dose not given): 24%

CC(C)n1c(Nc2cccnc2)nc2cnc(Nc3ccc(N4CCN(C)CC4)cc3)nc21
adverse event incidence (refers to: Hypertriglyceridaemia; healthy male subjects; oral, 100 mg, with: itraconazole): 35.7%

For quick reference, copied from above:
CC[C@H](C)[C@H](NC(=O)[C@H](Cc1ccccc1)NC(=O)[C@H](CCC(=O)O)NC(=O)[C@H](CCCCNC(=O)COCCOCCNC(=O)COCCOCCNC(=O)CC[C@H](NC(=O)CCCCCCCCCCCCCCCCC(=O)O)C(=O)O)NC(=O)[C@H](C)NC(=O)[C@H](C)NC(=O)[C@H](CCC(N)=O)NC(=O)CNC(=O)[C@H](CCC(=O)O)NC(=O)[C@H](CC(C)C)NC(=O)[C@H](Cc1ccc(O)cc1)NC(=O)[C@H](CO)NC(=O)[C@H](CO)NC(=O)[C@@H](NC(=O)[C@H](CC(=O)O)NC(=O)[C@H](CO)NC(=O)[C@@H](NC(=O)[C@H](Cc1ccccc1)NC(=O)[C@@H](NC(=O)CNC(=O)[C@H](CCC(=O)O)NC(=O)C(C)(C)NC(=O)[C@@H](N)Cc1cnc[nH]1)[C@@H](C)O)[C@@H](C)O)C(C)C)C(=O)N[C@@H](C)C(=O)N[C@@H](Cc1c[nH]c2ccccc12)C(=O)N[C@@H](CC(C)C)C(=O)N[C@H](C(=O)N[C@@H](CCCNC(=N)N)C(=O)NCC(=O)N[C@@H](CCCNC(=N)N)C(=O)NCC(=O)O)C(C)C
adverse event incidence (refers to: Headache; type 2 diabetes patients; dose not given; reference: subjects): 40%
